# Published values from different studies.
# Each line is one published result; not all experiments were run side by side. Values joined by “and” are separate records of one study, mostly repeats; a detail may differ. Numbers after ± are the reported error.
# TDP1: Tyrosyl-DNA phosphodiesterase 1 (TDP1, Homo sapiens, UniProt Q9NUW8)
# Sequence of UniProt Q9NUW8 (whole entry, looked up): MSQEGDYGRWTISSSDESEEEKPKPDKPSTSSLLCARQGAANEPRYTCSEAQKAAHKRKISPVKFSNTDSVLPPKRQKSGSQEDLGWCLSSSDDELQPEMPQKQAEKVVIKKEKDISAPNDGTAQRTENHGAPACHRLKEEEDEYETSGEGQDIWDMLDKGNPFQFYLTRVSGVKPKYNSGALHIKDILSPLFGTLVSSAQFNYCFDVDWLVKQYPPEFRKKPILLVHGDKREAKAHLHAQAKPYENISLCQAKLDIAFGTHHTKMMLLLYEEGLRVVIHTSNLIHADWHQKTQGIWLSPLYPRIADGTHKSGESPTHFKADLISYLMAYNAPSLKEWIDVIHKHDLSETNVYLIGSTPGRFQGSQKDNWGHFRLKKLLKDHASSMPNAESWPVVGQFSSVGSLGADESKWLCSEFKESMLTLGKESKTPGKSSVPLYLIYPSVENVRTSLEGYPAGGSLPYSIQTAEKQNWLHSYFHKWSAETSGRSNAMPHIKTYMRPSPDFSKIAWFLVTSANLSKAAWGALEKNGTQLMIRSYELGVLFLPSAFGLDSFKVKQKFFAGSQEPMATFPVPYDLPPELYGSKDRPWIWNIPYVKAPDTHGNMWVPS
Compound,tested on,test,system,setting,scale,quantity,value
CC(C)(O)c1ncc([S@](N)(=O)=NC(=O)Nc2c3c(cc4c2CCC4)CCC3)s1,,item: general and administration-site disorders,healthy human volunteers,"oral, 3 mg single dose, capsule formulation",,subjects with adverse events,17%
Cc1ncsc1-c1ccc(CNC(=O)[C@@H]2C[C@@H](O)CN2C(=O)[C@@H](NC(=O)COCC(C)(COCCOCCOCCNC(=O)C[C@@H]2N=C(c3ccc(Cl)cc3)c3c(sc(C)c3C)-n3c(C)nnc32)COCCOCCOCCNC(=O)C[C@@H]2N=C(c3ccc(Cl)cc3)c3c(sc(C)c3C)-n3c(C)nnc32)C(C)(C)C)cc1,,,"C57BL/6 mouse male, plasma","subcutaneous, 5 mg/kg",reference: intravenous 5 mg/kg,bioavailability,88.4%
O=C(Nc1cnccc1-c1ccc([18F])cc1)c1ccnc(NC(=O)C2CC2)c1,,ex vivo gamma counting,"GSK-3β transgenic mice, late-stage, feces","intravenous, 120 min, mean, P-gp inhibitor pretreatment, added: tariquidar 15 mg/kg iv",,SUV,4.56
CN1Cc2c(NCc3ccc(CN4CCN(c5ccc(C#N)c(F)c5)CC4)cc3)cccc2C(=O)N1C1CCC(=O)NC1=O (stereo not drawn),,,"mouse xenograft, stomach",dose not given,,organ weight,122 mg
C=C(NC(=O)c1csc(-c2nc3c(cc2O)-c2nc(cs2)C(=O)NC(C(C)O)C(=O)NC(=C(C)OC)c2nc(cs2)C(=O)NC2c4nc(cs4)C(=O)NC(COC(=O)c4c5c6c(cccc6n4O)COC(=O)C(OC4CC(C)(O)C(N(C)C)C(C)O4)C2OC5)c2nc-3cs2)n1)C(N)=O (stereo not drawn),,,"ICR mice, Streptococcus pneumoniae ATCC 49169 infected, immunocompromised, blood","intravenous, 2 mg/kg/day three times daily",,AUC(0-t),188 ng·h/mL
C=C[C@]1(C)C[C@@H](OC(=O)CSc2ccc(NC(=O)c3ccco3)cc2)[C@]2(C)[C@H](C)CC[C@]3(CCC(=O)[C@H]32)[C@@H](C)[C@@H]1O,,,"Mycoplasma gallisepticum-infected chickens, plasma","intramuscular, 80 mg/kg, 3 h",,plasma concentration,1.36 µg/mL and 2.25 µg/mL and 1.9 µg/mL and 2.31 µg/mL and 3.14 µg/mL and 1.98 µg/mL and 1.43 µg/mL and 1.66 µg/mL
CC(C)C[C@H](NC(=O)[C@H](CCCN)NC(=O)CNC(=O)[C@@H](NC(=O)[C@H](C)NC(=O)[C@@H]1CSCSC[C@H](NC(=O)CC[C@H](N)C(=O)O)C(=O)N[C@@H](CC(N)=O)C(=O)N[C@@H]([C@@H](C)O)C(=O)N[C@@H](C)C(=O)N[C@@H]([C@@H](C)O)C(=O)N1)[C@@H](C)O)C(=O)N[C@@H](C)C(=O)N[C@@H](CCC(=O)O)C(=O)N[C@@](C)(Cc1ccccc1)C(=O)N[C@@H](CC(C)C)C(=O)N[C@H](C(=O)N[C@@H](CCCNC(=N)N)C(=O)N[C@@H](CO)C(=O)N[C@@H](CO)C(=O)N[C@@H](CC(N)=O)C(=O)N(C)[C@@H](CC(N)=O)C(=O)N[C@@H](Cc1ccccc1)C(=O)NCC(=O)N1CCC[C@H]1C(=O)N[C@@H](CCCCNC(=O)CC[C@H](NC(=O)CC[C@H](NC(=O)CCCCCCCCCCCCCCCCCCC(=O)O)C(=O)O)C(=O)O)C(=O)N[C@@H](CC(C)C)C(=O)N1CCC[C@H]1C(=O)N1CCC[C@H]1C(=O)N[C@H](C(=O)N[C@@H](CCC(=O)O)C(=O)N[C@H](C(=O)NCC(=O)N[C@@H](CO)C(=O)N[C@@H](CC(N)=O)C(=O)N[C@H](C(=O)N[C@@H](Cc1ccc(O)cc1)C(N)=O)[C@@H](C)O)C(C)C)[C@@H](C)O)C(C)C,,,"cynomolgus monkey, plasma","subcutaneous, 20 nmol/kg, single dose",,AUC(0-inf),35 µM·h
O=C(NC1CCCC1)c1ccnc(N2Cc3cn(Cc4ccc(F)cc4)nc3C2)n1,,metabolic stability,"rat, liver microsomes",,,half-life,7 min
O=S(=O)(NCc1ccncc1)c1ccc(C2CCCCC2)cc1,,,"C57BL/6J mouse, male, plasma","intraperitoneal, 0.3 mg/kg",,Cmax,16 nM
COc1ccnc(C(=O)N[C@H]2COC(=O)[C@H](Cc3ccccc3)[C@@H](OC(=O)C(C)C)[C@H](C)OC2=O)c1O,,soil adsorption,tested soils,geometric mean,,Freundlich coefficient KF,74 mL/g
O=C(O)c1ccc(Nc2c(-c3ccccc3)nc3ccc(CON=Cc4cc(F)cc5c4OCOC5)cn23)cc1,TDP1,"enzyme activity, inhibitor",,"100 µM, unpurified compound",,inhibition,-6.7%
COc1cccc(OC)c1-c1cc(C(=O)NC2(C(=O)O)C3CC4CC(C3)CC2C4)nn1-c1ccc(C(=O)N(C)CCOCCN(C)C(=O)[C@H](CCCCNC(=O)[C@H](CC(C)C)NC(=O)C2OC2C(=O)O)NC(=O)CN2CCN(CC(=O)[O-])CCN(CC(=O)[O-])CCN(CC(=O)[O-])CC2)cc1C(C)C.[177Lu+3] (mixture of isomers),,,mouse HT-29 xenograft,"72 h, biodistribution",reference: tumour over pancreas,tumour-to-pancreas ratio,18.9
Cn1c(C=NOCc2ccc3nc(-c4ccccc4)c(Nc4ccc(C(=O)O)cc4)n3c2)ccc1-c1cccc([N+](=O)[O-])c1,TDP1,"enzyme activity, inhibitor",,"100 µM, unpurified compound",,inhibition,35.2%
CCCCCCn1ccc(=O)c(O)c1C,,"shake-flask, item: iron(III) complex",1-octanol/Tris buffer,"pH 7.4, ligand:iron 10:1",,partition coefficient,1900 ± 120
CCCCN1C(=O)c2cccc3c(NCCCCCN4CCOCC4)ccc(c23)C1=O,,,ethylene glycol,,,emission maximum,544 nm
NCCCC[C@H](NC(=O)[C@H](Cc1c[nH]c2ccccc12)NC(=O)[C@H](CCCCN)NC(=O)[C@@H](N)Cc1c[nH]c2ccccc12)C(=O)N[C@@H](Cc1c[nH]c2ccccc12)C(=O)O,,,serum,50% serum,,time to complete degradation,≤ 20 min
CCCCN1C(=O)c2cccc3c(NCCCCCCCCCCN4CCOCC4)ccc(c23)C1=O,,,toluene,,,emission maximum,507 nm
Cc1cc(-c2ccc(C(=O)[C@@H]3CCCC[C@H]3C(=O)Nc3cnn4c3C(=O)NCC4)cc2)[nH]n1,,,"human, urine","oral, 200 mg, mean of six subjects",reference: dose,cumulative recovery of radioactivity,5.9%

# Some of these lines once more:
Compound,tested on,test,system,setting,scale,quantity,value
CCCCN1C(=O)c2cccc3c(NCCCCCN4CCOCC4)ccc(c23)C1=O,,,ethylene glycol,,,emission maximum,544 nm
NCCCC[C@H](NC(=O)[C@H](Cc1c[nH]c2ccccc12)NC(=O)[C@H](CCCCN)NC(=O)[C@@H](N)Cc1c[nH]c2ccccc12)C(=O)N[C@@H](Cc1c[nH]c2ccccc12)C(=O)O,,,serum,50% serum,,time to complete degradation,≤ 20 min
CCCCN1C(=O)c2cccc3c(NCCCCCCCCCCN4CCOCC4)ccc(c23)C1=O,,,toluene,,,emission maximum,507 nm
